Assay results gathered from unrelated publications.
Each line is one published result; not all experiments were run side by side.
Target: Casein kinase I isoform gamma-2 (CSNK1G2, Homo sapiens, UniProt P78368)
UniProt P78368, sequence (whole entry, looked up): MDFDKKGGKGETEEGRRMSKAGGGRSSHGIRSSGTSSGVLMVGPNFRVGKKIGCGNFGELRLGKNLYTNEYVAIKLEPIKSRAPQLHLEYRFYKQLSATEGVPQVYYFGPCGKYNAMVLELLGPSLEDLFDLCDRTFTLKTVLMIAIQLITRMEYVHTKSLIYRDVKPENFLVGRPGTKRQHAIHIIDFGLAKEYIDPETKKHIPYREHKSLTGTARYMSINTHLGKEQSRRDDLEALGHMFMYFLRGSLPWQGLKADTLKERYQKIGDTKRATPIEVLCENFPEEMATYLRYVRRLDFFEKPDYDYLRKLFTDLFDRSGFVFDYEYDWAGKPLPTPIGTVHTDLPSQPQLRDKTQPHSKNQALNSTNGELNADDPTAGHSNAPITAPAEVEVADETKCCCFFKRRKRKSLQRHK

SMILES	test	conditions	scale	endpoint	value
CS(C)(=O)=Nc1ccc(-c2ccc(-c3nc4cc(O[C@@H]5CO[C@H]6[C@@H]5OC[C@H]6O)[nH]c4cc3F)cc2)cc1	enzyme activity, inhibitor	10 µM	–	inhibition	6%
CN(C)[C@H]1C[C@@]23CC[C@@]4(O2)C(=CC[C@]2(C)[C@@H](c5ccc6ccncc6c5)CC[C@H]24)C=C3[C@@H](O)[C@@H]1O	ATP probe labelling, inhibitor, KiNativ profiling	1 µM	–	inhibition	-3.5%
O=C1NC(=O)c2c1c1cc(F)c[n+]3c1c1c2c2cc(O)ccc2[n]1[Ru-4]312([N]=C=S)[S+]3CC[S+]1CC[S+]2CC3 (centres unmarked)	enzyme activity	100 nM, human enzyme, with: 10 µM ATP	baseline: untreated	remaining activity	-3%
CC(C)[C@H]1NC(=O)C[C@H]2/C=C/CCSSC[C@@H](NC1=O)C(=O)N[C@H](Cc1cccc3ccccc13)C(=O)NCC(=O)O2	enzyme activity, inhibitor	10 µM	–	inhibition	0%
Nc1ccc(/C=C/C(=O)N2CCc3c(oc4c(-c5ccc(F)cc5)cc(-c5ccc(C(=O)N6CCC(F)(F)CC6)cn5)cc34)C2)cn1	binding, competition with immobilised ligand	1 µM	–	remaining binding	100%
O=C(CN1CN(c2ccccc2)C2(CCN(C(=O)c3cnc4[nH]ncc4c3)CC2)C1=O)NCC(F)(F)F	inhibitor	concentration not given	–	inhibition	< 50%
C[C@H](NCc1ccc(-c2ccc(C(F)(F)F)cc2)cc1)C(N)=O	cell-free assay, competition with immobilised ligand	1 µM	–	inhibition	2%
CCOC(=O)[C@@H]1Cc2c(cc([N+](=O)[O-])cc2[N+](=O)[O-])[C@H](O)[C@]12C(=O)Nc1ccc(Br)cc12	KINOMEscan	100 nM	baseline: DMSO control	remaining binding	91%

Repeated from above:
SMILES	test	conditions	scale	endpoint	value
CC(C)[C@H]1NC(=O)C[C@H]2/C=C/CCSSC[C@@H](NC1=O)C(=O)N[C@H](Cc1cccc3ccccc13)C(=O)NCC(=O)O2	enzyme activity, inhibitor	10 µM	–	inhibition	0%
